Assay results from different studies.
Parts stem from different laboratories: compare values within a part only.

Series 1
Target: Sal-like protein 4, full length isoform A (SALL4, Homo sapiens, UniProt Q9UJQ4, residues 1-1053)
Chain of UniProt Q9UJQ4 (whole entry, looked up): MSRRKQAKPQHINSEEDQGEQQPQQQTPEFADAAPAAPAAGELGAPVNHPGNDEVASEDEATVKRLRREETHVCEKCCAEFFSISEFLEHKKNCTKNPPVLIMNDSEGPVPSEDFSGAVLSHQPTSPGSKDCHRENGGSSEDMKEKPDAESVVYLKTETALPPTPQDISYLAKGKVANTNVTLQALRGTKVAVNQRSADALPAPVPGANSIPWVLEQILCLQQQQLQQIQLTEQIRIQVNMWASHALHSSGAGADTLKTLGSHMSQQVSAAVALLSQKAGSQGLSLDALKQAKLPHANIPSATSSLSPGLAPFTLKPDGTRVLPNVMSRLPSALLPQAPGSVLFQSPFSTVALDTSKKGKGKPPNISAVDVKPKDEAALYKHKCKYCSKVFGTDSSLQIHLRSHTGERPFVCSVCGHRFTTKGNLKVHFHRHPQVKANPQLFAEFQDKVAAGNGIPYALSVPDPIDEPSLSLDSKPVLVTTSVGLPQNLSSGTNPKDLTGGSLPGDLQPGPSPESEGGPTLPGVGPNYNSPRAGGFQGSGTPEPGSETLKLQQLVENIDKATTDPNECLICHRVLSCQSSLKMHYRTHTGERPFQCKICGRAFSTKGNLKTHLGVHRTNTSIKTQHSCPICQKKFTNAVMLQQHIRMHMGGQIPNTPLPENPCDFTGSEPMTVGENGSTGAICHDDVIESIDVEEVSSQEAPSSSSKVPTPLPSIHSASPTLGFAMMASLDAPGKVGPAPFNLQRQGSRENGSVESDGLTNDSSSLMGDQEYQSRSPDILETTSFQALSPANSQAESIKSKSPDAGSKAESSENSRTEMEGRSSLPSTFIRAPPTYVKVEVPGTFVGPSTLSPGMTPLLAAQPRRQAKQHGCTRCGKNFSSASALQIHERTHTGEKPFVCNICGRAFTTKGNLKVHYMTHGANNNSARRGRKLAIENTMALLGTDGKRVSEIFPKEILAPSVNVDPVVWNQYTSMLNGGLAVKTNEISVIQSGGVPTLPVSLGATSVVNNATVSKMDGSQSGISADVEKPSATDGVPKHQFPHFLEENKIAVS
Method: universal PBM
Form: double-stranded DNA, one strand shown
Matrix: in vitro
Concentration: 600 nM
Notes: 8-mer, flanks averaged, mean of replicates
Reading: higher = stronger binding
Oligonucleotide | E-score
ACATGACG | 0.0311
ACAGAGCG | -0.0269
AGTGCGTC | -0.206
CCAAGCTC | -0.255
CTTGATAC | 0.113

Series 2
Target: Ras GTPase-activating protein-binding protein 1, full length (G3BP1, Homo sapiens, UniProt Q13283)
Chain of UniProt Q13283 (whole entry, looked up): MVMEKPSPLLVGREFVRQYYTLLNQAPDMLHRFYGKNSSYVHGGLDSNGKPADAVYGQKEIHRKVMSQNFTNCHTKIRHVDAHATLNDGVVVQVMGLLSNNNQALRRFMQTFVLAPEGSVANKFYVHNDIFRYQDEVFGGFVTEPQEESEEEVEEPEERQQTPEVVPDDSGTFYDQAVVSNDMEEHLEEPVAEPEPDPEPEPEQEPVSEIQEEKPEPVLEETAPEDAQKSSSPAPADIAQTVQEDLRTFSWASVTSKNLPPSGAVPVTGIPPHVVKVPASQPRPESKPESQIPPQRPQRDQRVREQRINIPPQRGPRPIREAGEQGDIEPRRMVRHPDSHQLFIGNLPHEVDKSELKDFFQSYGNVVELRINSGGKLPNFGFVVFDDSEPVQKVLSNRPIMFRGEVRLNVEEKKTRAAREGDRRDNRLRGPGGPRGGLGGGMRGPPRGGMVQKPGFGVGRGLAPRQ
Method: RNA Bind-n-Seq
Form: RNA
Matrix: in vitro
Concentration: 200 nM
Notes: whole 134-nt RNA, ends assumed
Together with: 150 mM KCl
Relative to: input library
Reading: higher = stronger binding
Oligonucleotide | log2 enrichment
GGGAGUUCUACAGUCCGACGAUCUAACUUUAGAGGAGGAUCUGAUGGAUAUGGCAGUGGACGUGGAUUUGGGGAUGGCUAUAAUGGGUAUGGAGGAGGAGCUGGAGGUGGCAAUGGAAUUCUCGGGUGUCAAGG | 0.884
GGGAGUUCUACAGUCCGACGAUCAGUCCUGUGCUACACAUCGUAUGUACCGAAUCAAACCCAAAUUUAAAUUUUUUUAAAAAAGUAUUAUGUUACGCCGUUCGGAUCUGCACUUGGAAUUCUCGGGUGUCAAGG | -0.344
GGGAGUUCUACAGUCCGACGAUCGUCCUGUGCUACACAUCGUAUGUACCGAAUCGGGGAGGGGUUUGGGGAAAAAAAGGGGAAAGUAUUAUGUUACGCCGUUCGGAUCUGCACUGGAAUUCUCGGGUGUCAAGG | 0.3
GGGAGUUCUACAGUCCGACGAUCCAAGUCCUGUGCUACACAUCGUAUGUACCGAAUCGGGCCCCGGCCCCGGCCCCGGAAAGUAUUAUGUUACGCCGUUCGGAUCUGCACUUCUGGAAUUCUCGGGUGUCAAGG | -0.943

Series 3
Target: Histone acetyltransferase KAT6A, winged helix 2, GST fusion (KAT6A, Homo sapiens, UniProt Q92794, residues 85-181)
Method: protein binding microarray
Form: double-stranded DNA, one strand shown
Matrix: in vitro
Concentration: not given
Notes: 8-mer, flanks averaged, mean of 2 arrays, mostly near background
Relative to: not given
Reading: higher = stronger binding
Construct (chain): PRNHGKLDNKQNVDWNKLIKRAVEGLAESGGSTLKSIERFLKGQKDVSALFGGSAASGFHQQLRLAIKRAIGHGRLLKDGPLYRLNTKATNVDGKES
Oligonucleotide | E-score
GGGACGGA | -0.0719
CACAATTA | -0.0504
TACGAAAA | 0.0137
ATGACTCG | -0.0644
CGTACCGA | -0.0595

Mixed results
Molecule | target | test | test system | setting | how to read | endpoint | value
PhoQ, residues 284 288 289 292 302 303 GASLAW | PhoP, residues 12 14 15 18 19 NIMAP (Escherichia coli, UniProt P23836) | Sort-seq, refers to: YFP reporter | E. coli | PhoQ-PhoP variant library, together with: 10 µM Mg2+ | relative to: high Mg2+ state, higher = stronger signaling | fold induction | 0.793
